# Published values from different studies.
# Numbered parts are unrelated; each lists some results of a single study.
# UniProt Q9H4B4, sequence (whole entry, looked up): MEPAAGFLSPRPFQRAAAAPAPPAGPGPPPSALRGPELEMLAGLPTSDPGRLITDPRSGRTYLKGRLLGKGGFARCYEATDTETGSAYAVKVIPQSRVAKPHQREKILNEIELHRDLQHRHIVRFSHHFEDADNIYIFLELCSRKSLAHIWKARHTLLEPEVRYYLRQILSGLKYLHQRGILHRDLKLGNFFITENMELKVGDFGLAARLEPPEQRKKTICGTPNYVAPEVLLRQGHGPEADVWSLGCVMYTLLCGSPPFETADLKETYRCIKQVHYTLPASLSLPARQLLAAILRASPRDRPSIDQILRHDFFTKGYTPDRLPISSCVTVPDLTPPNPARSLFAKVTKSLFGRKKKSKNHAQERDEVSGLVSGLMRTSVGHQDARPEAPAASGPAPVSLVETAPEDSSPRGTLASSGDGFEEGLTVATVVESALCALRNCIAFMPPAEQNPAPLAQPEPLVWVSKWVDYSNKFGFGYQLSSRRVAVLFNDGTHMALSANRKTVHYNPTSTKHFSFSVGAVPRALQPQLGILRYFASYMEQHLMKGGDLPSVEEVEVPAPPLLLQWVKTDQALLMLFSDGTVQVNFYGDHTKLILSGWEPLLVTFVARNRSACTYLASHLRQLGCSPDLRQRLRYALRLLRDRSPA
# UniProt P08581, sequence (whole entry, looked up): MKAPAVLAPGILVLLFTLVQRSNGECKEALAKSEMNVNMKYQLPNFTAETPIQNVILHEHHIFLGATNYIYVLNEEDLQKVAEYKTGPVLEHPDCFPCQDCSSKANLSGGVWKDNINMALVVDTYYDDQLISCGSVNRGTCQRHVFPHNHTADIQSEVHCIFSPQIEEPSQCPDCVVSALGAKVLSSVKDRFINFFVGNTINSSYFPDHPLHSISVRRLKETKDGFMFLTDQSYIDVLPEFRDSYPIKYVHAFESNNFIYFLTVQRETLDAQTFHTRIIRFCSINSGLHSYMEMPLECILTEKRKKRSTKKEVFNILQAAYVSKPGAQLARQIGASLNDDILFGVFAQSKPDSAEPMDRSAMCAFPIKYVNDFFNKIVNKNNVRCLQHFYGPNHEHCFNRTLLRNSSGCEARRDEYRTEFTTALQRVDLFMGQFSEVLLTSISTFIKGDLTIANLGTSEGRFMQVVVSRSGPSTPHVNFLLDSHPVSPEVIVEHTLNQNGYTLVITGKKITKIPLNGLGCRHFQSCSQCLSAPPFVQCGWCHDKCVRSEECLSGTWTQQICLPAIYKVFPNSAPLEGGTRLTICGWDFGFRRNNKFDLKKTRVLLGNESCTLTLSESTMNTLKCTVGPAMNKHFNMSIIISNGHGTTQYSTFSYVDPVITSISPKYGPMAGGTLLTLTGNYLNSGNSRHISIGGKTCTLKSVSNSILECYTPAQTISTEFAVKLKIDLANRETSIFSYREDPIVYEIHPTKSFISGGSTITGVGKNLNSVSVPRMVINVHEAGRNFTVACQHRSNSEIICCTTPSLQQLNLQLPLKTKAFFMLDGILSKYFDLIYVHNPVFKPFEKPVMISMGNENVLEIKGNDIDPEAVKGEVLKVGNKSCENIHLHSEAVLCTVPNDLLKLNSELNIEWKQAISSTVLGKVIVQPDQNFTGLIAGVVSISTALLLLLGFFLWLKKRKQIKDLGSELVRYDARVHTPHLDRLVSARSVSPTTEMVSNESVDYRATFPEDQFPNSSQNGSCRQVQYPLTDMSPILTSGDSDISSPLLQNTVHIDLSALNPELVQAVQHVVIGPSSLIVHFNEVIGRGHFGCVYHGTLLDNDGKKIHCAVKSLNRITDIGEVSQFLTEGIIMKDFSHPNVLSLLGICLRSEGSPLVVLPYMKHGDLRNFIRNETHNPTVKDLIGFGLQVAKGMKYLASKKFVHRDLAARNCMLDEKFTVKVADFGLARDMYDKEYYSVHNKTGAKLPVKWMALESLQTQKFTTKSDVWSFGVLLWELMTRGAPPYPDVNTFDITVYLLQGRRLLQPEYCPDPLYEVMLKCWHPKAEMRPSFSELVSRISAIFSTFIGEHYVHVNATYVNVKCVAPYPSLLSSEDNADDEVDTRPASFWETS
# UniProt Q15349, sequence (whole entry, looked up): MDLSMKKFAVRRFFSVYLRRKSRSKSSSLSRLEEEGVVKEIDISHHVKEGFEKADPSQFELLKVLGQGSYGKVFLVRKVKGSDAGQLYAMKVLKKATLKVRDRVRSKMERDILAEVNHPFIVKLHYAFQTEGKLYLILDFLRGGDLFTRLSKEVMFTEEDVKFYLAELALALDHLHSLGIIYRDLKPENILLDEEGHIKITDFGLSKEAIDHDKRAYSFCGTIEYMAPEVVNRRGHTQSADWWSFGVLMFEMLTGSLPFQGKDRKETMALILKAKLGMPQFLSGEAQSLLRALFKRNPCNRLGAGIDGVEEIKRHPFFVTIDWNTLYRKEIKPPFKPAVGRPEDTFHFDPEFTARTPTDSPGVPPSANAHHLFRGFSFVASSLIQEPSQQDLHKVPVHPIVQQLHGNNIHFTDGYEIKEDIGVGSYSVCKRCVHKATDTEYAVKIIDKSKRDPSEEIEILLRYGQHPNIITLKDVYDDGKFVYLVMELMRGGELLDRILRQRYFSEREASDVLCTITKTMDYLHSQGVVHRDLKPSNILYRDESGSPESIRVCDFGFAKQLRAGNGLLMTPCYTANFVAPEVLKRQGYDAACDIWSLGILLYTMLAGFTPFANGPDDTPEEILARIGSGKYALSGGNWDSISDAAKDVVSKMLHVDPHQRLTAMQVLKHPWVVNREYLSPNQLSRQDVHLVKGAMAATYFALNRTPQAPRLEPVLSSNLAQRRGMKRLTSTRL
# UniProt Q6P2M8, sequence (whole entry, looked up): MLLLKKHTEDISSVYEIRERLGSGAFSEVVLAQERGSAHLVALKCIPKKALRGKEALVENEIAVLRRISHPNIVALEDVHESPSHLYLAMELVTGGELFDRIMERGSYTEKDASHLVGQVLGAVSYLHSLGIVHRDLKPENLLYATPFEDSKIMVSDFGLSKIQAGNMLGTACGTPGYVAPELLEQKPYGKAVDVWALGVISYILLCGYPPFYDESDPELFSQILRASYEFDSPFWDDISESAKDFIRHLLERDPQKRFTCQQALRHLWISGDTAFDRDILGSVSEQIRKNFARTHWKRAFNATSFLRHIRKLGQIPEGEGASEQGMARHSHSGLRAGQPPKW
# UniProt P42681, sequence (whole entry, looked up): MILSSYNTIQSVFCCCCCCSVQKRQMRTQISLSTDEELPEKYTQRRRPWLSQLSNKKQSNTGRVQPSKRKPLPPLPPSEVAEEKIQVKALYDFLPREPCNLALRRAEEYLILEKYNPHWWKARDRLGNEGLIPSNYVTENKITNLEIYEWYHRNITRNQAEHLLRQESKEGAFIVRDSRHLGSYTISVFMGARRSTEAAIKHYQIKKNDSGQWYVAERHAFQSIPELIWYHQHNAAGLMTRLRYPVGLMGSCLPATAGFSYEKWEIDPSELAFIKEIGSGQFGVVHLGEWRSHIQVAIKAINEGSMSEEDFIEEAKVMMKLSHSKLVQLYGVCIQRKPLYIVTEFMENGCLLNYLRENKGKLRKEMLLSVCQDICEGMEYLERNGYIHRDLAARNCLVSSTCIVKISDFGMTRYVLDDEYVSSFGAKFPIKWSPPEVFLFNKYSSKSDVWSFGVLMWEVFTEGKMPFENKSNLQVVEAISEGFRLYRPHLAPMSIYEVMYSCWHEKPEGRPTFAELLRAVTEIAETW
# UniProt Q8NG66, sequence (whole entry, looked up): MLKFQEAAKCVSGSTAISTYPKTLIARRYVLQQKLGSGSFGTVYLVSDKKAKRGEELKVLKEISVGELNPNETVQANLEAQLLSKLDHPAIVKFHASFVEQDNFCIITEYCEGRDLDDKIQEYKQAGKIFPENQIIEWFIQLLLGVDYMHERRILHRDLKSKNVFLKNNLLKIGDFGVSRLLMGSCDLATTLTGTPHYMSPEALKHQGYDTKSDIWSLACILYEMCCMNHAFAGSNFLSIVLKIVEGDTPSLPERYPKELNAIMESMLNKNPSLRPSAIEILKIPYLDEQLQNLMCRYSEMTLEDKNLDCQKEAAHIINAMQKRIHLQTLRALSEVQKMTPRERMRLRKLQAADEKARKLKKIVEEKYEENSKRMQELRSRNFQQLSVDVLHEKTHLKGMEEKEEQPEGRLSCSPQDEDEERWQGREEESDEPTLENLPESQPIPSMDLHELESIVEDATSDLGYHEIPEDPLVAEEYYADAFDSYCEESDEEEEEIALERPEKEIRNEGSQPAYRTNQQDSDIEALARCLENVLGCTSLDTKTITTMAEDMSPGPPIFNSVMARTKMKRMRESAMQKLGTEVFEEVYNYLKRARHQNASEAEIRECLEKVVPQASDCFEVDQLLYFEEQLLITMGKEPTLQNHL

# Study 1 — observed: enzyme activity; mode: inhibitor; concentration: 0.5 µM; reference: control
# SMILES: COc1ccc(S(=O)(=O)N(CCO)c2ccccc2CN(C)CC=Cc2ccc(Cl)cc2)cc1
target,remaining activity [%]
"CLK4 (Homo sapiens, UniProt Q9HAZ1)",96
"NEK3 (Homo sapiens, UniProt P51956)",96.2
"Myosin-IIIb (MYO3B, Homo sapiens, UniProt Q8WXR4)",90.2
"PLK3 (Homo sapiens, UniProt Q9H4B4)",99.4
"DCLK2 (Homo sapiens, UniProt Q8N568)",99.1
"Cyclin-dependent kinase 1, with cyclin A (CDK1, Homo sapiens, UniProt P06493)",96.5
"MAPK1 (Homo sapiens, UniProt P28482)",97
"CAMK4 (Homo sapiens, UniProt Q16566)",97.5
"ROCK1 (Homo sapiens, UniProt Q13464)",99.7
"MAPK14 (Homo sapiens, UniProt Q16539)",95.1
"KDR (Homo sapiens, UniProt P35968)",101
"CDC42BPB (Homo sapiens, UniProt Q9Y5S2)",101
"TXK (Homo sapiens, UniProt P42681)",95.6
"PNCK (Homo sapiens, UniProt Q6P2M8)",99.8
"MET (Homo sapiens, UniProt P08581)",98.2

# Study 2 — mode: agonist
# Target: Beta-1 adrenergic receptor (ADRB1, Homo sapiens, UniProt P08588)
# UniProt P08588, sequence (whole entry, looked up): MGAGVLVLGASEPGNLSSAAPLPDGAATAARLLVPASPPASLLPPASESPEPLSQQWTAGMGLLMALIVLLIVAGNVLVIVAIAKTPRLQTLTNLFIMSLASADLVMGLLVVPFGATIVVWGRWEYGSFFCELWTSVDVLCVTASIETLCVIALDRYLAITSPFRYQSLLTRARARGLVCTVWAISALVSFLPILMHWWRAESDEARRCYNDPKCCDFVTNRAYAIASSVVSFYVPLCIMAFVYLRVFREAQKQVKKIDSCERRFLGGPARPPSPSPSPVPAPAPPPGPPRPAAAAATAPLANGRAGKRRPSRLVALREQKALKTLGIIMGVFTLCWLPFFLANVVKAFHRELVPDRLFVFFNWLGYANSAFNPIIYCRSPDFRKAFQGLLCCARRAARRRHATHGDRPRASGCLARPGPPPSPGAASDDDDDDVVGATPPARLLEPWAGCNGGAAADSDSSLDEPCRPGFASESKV
Compound,EC50
CC1(C)CC(=O)c2cc(C(=O)Nc3ccccc3)c(O)nc2C1,≥ 100 µM
CC#CCn1cc2c3c(cccc31)[C@H](CC(C)C)N[C@H](C(=O)NCCC)C2,2.7 µM
Cc1oc(C(O)c2ccccc2)nc1C(=O)NCCc1c[nH]cn1 (stereo not drawn),≥ 100 µM
c1ccc(-c2cccc(-n3ccnc3-c3cc4n(n3)CCCNC4)c2)nc1,≥ 100 µM
c1ccc2c(CCNCc3ccc(-n4ccnc4)cc3)c[nH]c2c1,≥ 100 µM
Cc1cccc(CCNc2ncc(C(C)(C)C(=O)O)c(N3CCOCC3)n2)n1,≥ 100 µM
COc1ncc(-c2nccc3c(=O)cc(N(C)c4ccccc4)oc23)cn1,≥ 100 µM
COc1cc(O)c2c3c(c(O)cc(C)c13)C(=O)OC2,≥ 100 µM

# Study 3 — cell line: A-375; concentration: 100 µM; time: 36 h
SMILES,viability
C#CCN[C@@H]1CCc2ccccc21,106%
N#CC(c1ccc(Cl)cc1)c1c(Cl)cc(-n2ncc(=O)[nH]c2=O)cc1Cl (stereo not drawn),101%
CC(C[N+](C)(C)C)OC(N)=O (stereo not drawn),106%
COc1ccc(-n2nc(C(N)=O)c3c2C(=O)N(c2ccc(N4CCCCC4=O)cc2)CC3)cc1,109%
CN1C(C(=O)Nc2ccccn2)=C(O)c2sccc2S1(=O)=O,105%
Nc1ccc(/N=N/c2ccccc2)c(N)n1,32.8%
CCN(CC)CCNC(=O)c1cc(S(C)(=O)=O)ccc1OC,76.2%
CNC1CCCN(c2c(F)cc3c(=O)c(C(=O)O)cn(C4CC4)c3c2OC)C1 (stereo not drawn),111%
O=C(C[S+]([O-])Cc1ccco1)NC/C=C\COc1cc(CN2CCCCC2)ccn1 (stereo not drawn),98.2%

# Study 4 — observed: cell-free assay; technique: competition with immobilised ligand; concentration: 1 µM
# Compound: O=C1CCc2cc(Nc3cc(OC4CCOCC4)c([N+](=O)[O-])cc3Cl)ccc2N1
target,remaining binding
"FGFR4 (Homo sapiens, UniProt P22455)",81%
"Ribosomal protein S6 kinase alpha-2, C-terminal kinase domain (RPS6KA2, Homo sapiens, UniProt Q15349)",92%
"NEK11 (Homo sapiens, UniProt Q8NG66)",100%
"Ribosomal protein S6 kinase alpha-4, C-terminal kinase domain (RPS6KA4, Homo sapiens, UniProt O75676)",72%
"PIK3C2B (Homo sapiens, UniProt O00750)",89%
"EGFR (Homo sapiens, UniProt P00533, del752-759)",100%
"MAP2K7 (Homo sapiens, UniProt O14733)",100%

# A few entries again (study 1):
target,remaining activity [%]
"NEK3 (Homo sapiens, UniProt P51956)",96.2
"DCLK2 (Homo sapiens, UniProt Q8N568)",99.1
"CDC42BPB (Homo sapiens, UniProt Q9Y5S2)",101
"CLK4 (Homo sapiens, UniProt Q9HAZ1)",96
